Measurements from different studies.
Each numbered part is a random draw from the data of one study; scales do not carry over between parts. Changes are numbered by the printed parent chain.

Set 1
Target: PABPC1L2, full length, GST fusion (mouse, UniProt A0ABA7IW68)
Technique: RNAcompete
Form: RNA
Matrix: in vitro
Concentration: 20 nM
Notes: 7-mer, probes averaged, single round
Baseline: mean of 7-mers
Reading: higher = stronger binding
Construct (chain): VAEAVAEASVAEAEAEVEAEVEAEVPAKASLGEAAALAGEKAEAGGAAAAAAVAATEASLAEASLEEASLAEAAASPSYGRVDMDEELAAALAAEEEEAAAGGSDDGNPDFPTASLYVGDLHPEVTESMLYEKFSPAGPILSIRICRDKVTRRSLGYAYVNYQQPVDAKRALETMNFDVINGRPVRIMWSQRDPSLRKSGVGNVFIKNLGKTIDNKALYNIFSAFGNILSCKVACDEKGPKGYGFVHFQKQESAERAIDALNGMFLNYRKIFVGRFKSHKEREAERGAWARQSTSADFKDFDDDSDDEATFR
| Oligonucleotide | 7-mer Z-score |
| --- | --- |
| UUUCUAA | -0.32 |
| CGGAACU | -0.0609 |
| UAUGCUA | -0.211 |
| CCGCGCU | -0.347 |
| GCGGUAC | 0.0261 |
| UUCGAAG | -0.26 |
| CUACUAA | -0.126 |
| CCAGAAC | -0.164 |
| AAACAGG | 3.78 |
| GACCGAG | 0.0334 |
| CCGGGUU | -0.307 |

Set 2
Target: ABI1, truncated, D143A, DHFR fusion (Arabidopsis thaliana)
Technique: DHFR PCA, deep sequencing
Matrix: yeast
Notes: methotrexate growth selection, single substitutions
With: (+)-ABA 2500 µM
Baseline: wild-type fitted maximum
Reading: higher = stronger binding
Starting sequence: PYL1, truncated, DHFR fusion (Arabidopsis thaliana); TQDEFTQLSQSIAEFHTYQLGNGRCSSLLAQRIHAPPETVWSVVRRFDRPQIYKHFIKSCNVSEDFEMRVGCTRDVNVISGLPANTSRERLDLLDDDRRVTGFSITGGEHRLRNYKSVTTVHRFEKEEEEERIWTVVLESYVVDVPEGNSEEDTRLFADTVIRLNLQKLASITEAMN
| Variant | relative binding score [%] |
| --- | --- |
| E129R | 99.9 |
| G23H | 95.1 |
| E130D | 100 |
| E125Q | 100 |
| C60I | 96 |
| F66M | 96.4 |
| V145M | 95.4 |

Set 3
Target: CCNB2, cyclin fold, Cln2 fusion (human)
Technique: yeast growth competition, sequencing
Matrix: yeast
Notes: weak parent motif
Baseline: not given
Reading: higher = stronger binding
Starting sequence: CDC25A docking peptide (human); PPHRRRLLFACSP
| Variant | normalised enrichment score |
| --- | --- |
| PPHRRRLLFAWSP [C11W] | -0.249 |
| PPHRRHLLFACSP [R6H] | 0.511 |
| PPHRRRLLFACSW [P13W] | -0.0782 |
| PPHRMRLLFACSP [R5M] | 0.378 |
| PPHRRRLLLACSP [F9L] | 0.547 |
| PPHRRRRLFACSP [L7R] | 0.594 |
| PPCRRRLLFACSP [H3C] | 0.858 |
| PPHRRRALFACSP [L7A] | 0.746 |
| PPHRRRLLFARSP [C11R] | 0.113 |
| PPHRRRLLFDCSP [A10D] | 0.318 |
| PPHRRRLFFACSP [L8F] | 0.76 |
| PPHRRRLLFFCSP [A10F] | -0.102 |
| PPHRRRLPFACSP [L8P] | -0.0359 |

Mixed results
| Molecule | target | assay | test system | setting | how to read | endpoint | result |
| --- | --- | --- | --- | --- | --- | --- | --- |
| PhoQ, residues 284 288 289 292 302 303 SSYNSA | PhoP, residues 12 14 15 18 19 HLGGL (Escherichia coli, UniProt P23836) | Sort-seq, refers to: YFP reporter | E. coli | PhoQ-PhoP variant library, with: 10 µM Mg2+ | baseline: high Mg2+ state, higher = stronger signaling | fold induction | 1.35 |

Repeated from above (set 1):
| Oligonucleotide | 7-mer Z-score |
| --- | --- |
| AAACAGG | 3.78 |
| CCGGGUU | -0.307 |
| UUCGAAG | -0.26 |
| CGGAACU | -0.0609 |
| GACCGAG | 0.0334 |
